# Published values of several laboratories.
# Parts stem from different laboratories: compare values within a part only.

# Block 1 — method: RNA Bind-n-Seq; form: RNA; matrix: in vitro; concentration: 200 nM; setting: whole 134-nt RNA, ends assumed; with: 150 mM LiCl; baseline: input library; reading: higher = stronger binding; library: 7-deaza-guanosine replaces G
# Target: Fragile X messenger ribonucleoprotein 1, C-terminal low-complexity region (Fmr1, Mus musculus, UniProt P35922)
# Constant ends, left off below: GGGAGUUCUACAGUCCGACGAUC … UGGAAUUCUCGGGUGUCAAGG
Strand,log2 enrichment
UGGCCCUGGUGGCAUGCGGGGAGGAAGAGGUGGCCUCAUGGAUCGUGGUGGUCCCGGUGGAAUGUUCAGAGGUGGCCGUGGUGGAAACAG,-0.393
AGUCCUGUGCUACACAUCGUAUGUACCGAAUCGGAAAAAGGAAAAAAAGGUUUUUGGAAAGUAUUAUGUUACGCCGUUCGGAUCUGCACU,-2.88
UCAAGUCCUGUGCUACACAUCGUAUGUACCGAAUCGGGGAAGGGAAGGAAGGGGAAAGUAUUAUGUUACGCCGUUCGGAUCUGCACUUCC,-0.591
UCAUUUUUUUCCCUGCCGGAAUUUUAGCAUUGAUAUGAACCAUGGACAAGUAUAUUCUGCUGCCACAAAGACUGUAAAGUGCUUCAUUUC,1.56
CUGUGCUACACAUCGUAUGUACCGAAUCGGGGAAAAAGGGGUUUUUGGGGAAAAAAAGGGGAAAGUAUUAUGUUACGCCGUUCGGAUCUG,-0.0047
CACAGACAACACGCACCCACACAGACACAGAGGGAAGGGGUUGGGAUGGGGACAGAGUGCACAGCAGGGCGGGGUAGGACCCCAGCCCCU,0.117
ACCAUGCAGGUGGGCAUCUUUGGGAAGUGGGGCAAGGGGGGGAUAGGGAGGGGGGUGACACUUUGGGAACAGGUGGUCCCAGGUCGUUUC,1.41
CUCAAGUCCUGUGCUACACAUCGUAUGUACCGAAUCGGGGUGGGGUGGGGUGGGAAAGUAUUAUGUUACGCCGUUCGGAUCUGCACUUCC,-0.83
CACAGACAACACGCACCCACACAGACACAGAGGGAAGGGGUUGGGAUGGGGACCGGGUGCACAGCAGGGCGGGGUAGGACCCCAGCCCCU,-0.0782
CUCAAGUCCUGUGCUACACAUCGUAUGUACCGAAUCGGGAAAGGGAGGGUGGGAAAGUAUUAUGUUACGCCGUUCGGAUCUGCACUUCCA,-0.998
GUCCUGUGCUACACAUCGUAUGUACCGAAUCGGGCCCCCGGGCCCCCGGGGCCCCCGGGAAAGUAUUAUGUUACGCCGUUCGGAUCUGCA,-3.07

# Block 2 — method: RNA Bind-n-Seq; form: RNA; matrix: in vitro; concentration: 365 nM; baseline: no-protein control; reading: higher = stronger binding
# Target: RNA binding protein fox-1 homolog 2, RRM domain, GST-SBP tag (RBFOX2, Homo sapiens, UniProt O43251-10, residues 100-194)
# Setting: natural RNA segment, single round, ends assumed
# Constant ends, left off below: GGGAGUUCUACAGUCCGACGAUC … UGGAAUUCUCGGGUGCCAA
# Target sequence (chain): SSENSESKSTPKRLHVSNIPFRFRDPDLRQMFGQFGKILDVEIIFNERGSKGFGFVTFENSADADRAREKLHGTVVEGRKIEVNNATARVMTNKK
Strand,RBNS enrichment (R)
GGUCAUCACUUCUGUUCUAUGUUAUUAUCUAGGACUCAACGAGUCAUCUCAAACCAUAUUCUGUGAAUCCAUCUCAUGGUCCACUCCUGGGCUGCGGAAGGUACAAGGCG,0.273
CCCGUGUGGCUUUAUCCUGUCCCUGCUGUUGCGAGGAAGCUGUGAGGGUACCUUCAGAUGAGAUACCUGCUUGUAUUUUAAGAGAAACAAGUAGCCAAAGAAACUCUGUC,0.575
CGGGGGGAGGAUGCCAGCAGCCUGCCUAUGGCUCCAGCUGUGCUGUGGCCCAGCAGCAUGGCCUGCAUCUGGAAGGACACAGGUUGCCAGAGCCCCUGGCACAACUCUAG,1.26
UGACUGACGGCCCCUUGUGCAAGCUCAUUCUUCAGUGGAUCCUUCAGUGGAGUGGUGACACGUGCCAGCGGUCACUCUGCCACAUCACUUCCUUCUUGAAAGCCUAAGAG,0.414
ACCAUCUCUCUCUCCCCCUACCUACCAAACUAUCCACAAUUUAAAUAAAGAACUGCUGUGUCUGACUACUCUCAAUAAAAGUUUGUGUCUUUAUUUCUGGUCUCUAGACU,0.971
CCCAUAACAUGGUGUGAGGACGGACUGGGAGCCGGUACAGACUCCAGUGUUUACAGCCUUGCUUUCCUCCCACCGACCCUGGCCCCAGGCUGCCCCGGGCCUGGCGGGCC,0.249
AAACUAUCAGGAAAAAAACCAAAACUUUAUACCAAUGAUUUAGUAAUUUUGAGGCAUAGGGUAGCUUACGUAGUGGAGGAUGUGCCAAAUAUUCUCUUCAAAUGCCACCU,0.275
CCUCCCGUGGAUCUCCCGGGGUGGGGGCAGGGCGGGUCCCACGAUGGCCCCCAUUGCCCUCAUCACCCUGACACCCCCACAUUCUCUCCUCUGGACCCCCAGGAGGCUGG,0.375
CAGAGGCACCUUACUCUCUGGGGCAUUAUCAGAUUUUAAUAAAUGAAUAAAUAAAUGGUAUUUUUUUUAAAUGUCAGCUCUUCCAUAAUUCAGUCUAGAUAGGAGAUUAU,0.431
GGCCACGUGCUUCUAUGUGGUGUUUGACUCUGUACAAAUUCUAGUCCCAAAGAUCAAGUUGUCUGAAGGAGCCAAAGUGUGAAUGUGGGUGUCGGCUGCGGCAUUAAAUU,1.38
UCCACAUGAGAUUCCAGAAGAAAUGUGUGAUUAAAAUCCAAAUUCAUGCUGUUUUUUUUCUCUGCAACUCGUUAGCAGAGGAAAACAGCAUGUGGGUAUUUGUCGACCAA,0.368
AUAUAUACAGACCUAAAUUUUAAAAUCUGUACAUAUAUUAUUUUGAUGUAUUAAGAUUGAUAAUAUUGCUGAUUUAAAUUUUAUUUAUGCACAUACUUAAAGGACAGAAA,0.578

# Block 3 — method: protein-binding microarray; form: double-stranded DNA, one strand shown; matrix: in vitro; concentration: 250 nM; setting: 60-bp whole probe; with: salmon DNA 0.4 mg/ml; baseline: random background probes; reading: higher = stronger binding; constant ends, left off below: GCCTAGCAC … GTCTTGATTCGCTTGACGCTGCTG
# Target: Interferon regulatory factor 5, full length, phosphomimetic (IRF5, Homo sapiens, UniProt Q13568-2, residues 1-514, K96S/S451D/S453D/S456D/S462D)
Strand,log fluorescence
TTAGATATCGGGTTTCGAGTAGTGCTA,4.84 z-score
TTAGGTTTTGGGTTTCGGTTAGTGCTA,7.77 z-score
GATGGTATCGGGTATCGGGACGTGCTA,4.46 z-score
TTAGGTTTCCTTGCCCTTTAGTGCTAG,0.476 z-score
GACGATATCGGGTTTCCAGACGTGCTA,1.76 z-score
CACGGTATCGGTTTCGGGACGTGCTAG,8.41 z-score
TCAAGAATCACAACTAGGACTGTGCTA,0.0344 z-score
TCAAAATTTTTTTTCTAACTGTGCTAG,0.703 z-score
GACGATATCGTGTTTCGAGACGTGCTA,2.76 z-score
ACCTTTGTTTTTTTCTATATGTGCTAG,1.98 z-score
TCATTTCCCACTTTCAGACTGTGCTAG,2.17 z-score
TCATTTTTTTTTTTTGGACTGTGCTAG,0.712 z-score
TTAGATATCAGACTGGGTTAGTGCTAG,0.163 z-score
GACGATTTCAATATCGAGACGTGCTAG,2.12 z-score
TTAGGTACCGGACTGGGTTAGTGCTAG,-0.222 z-score
CTAGGTATCGACTATCGGTTAGTGCTA,7.46 z-score
TTAGGTCTCGTTATCGGTTAGTGCTAG,5.09 z-score
TTAGGACTGGGTATCGGTTTGTGCTAG,3.47 z-score
GACGGACTGCTTTTTCTGACGTGCTAG,-0.129 z-score
GACGATATCAGTTTCGCGACGTGCTAG,3.15 z-score
TTAGAACTGGACTTTCGGTTAGTGCTA,9.73 z-score
GACGAACTGAGTCTCGATACGTGCTAG,0.559 z-score
GTCGGTATCGGTTTCGGGACGTGCTAG,9.62 z-score
GACGGACTTGGTATCGGGACGTGCTAG,1.07 z-score
TGTTTTTCATTGTTTTTCATCGTGCTA,2.84 z-score

# Block 4 — method: aptamer microarray, sandwich; form: DNA with 2'F-ANA; matrix: in vitro; concentration: 200 nM; with: Cy3 exosite-II aptamer, 400 nM; reading: higher = stronger binding; strand: GGTTGGTGTGGTTGG
# Target: Prothrombin, mature alpha-thrombin (F2, Homo sapiens, UniProt P00734)
# Setting: whole 15-mer aptamer, many near background
Modification,mean fluorescence intensity [a.u.]
2'F-ANA at 1 4 8 9 10 11 12 13 15,73.6
2'F-ANA at 1 6 7 8 12 14 15,80.7
2'F-ANA at 1 2 7 10 11 12,60
2'F-ANA at 3 4 5 6 7 10 11 13 15,47.6
2'F-ANA at 5 7 8 9 10 11 13 15,72
2'F-ANA at 2 6 7 8 9 12 13,580
2'F-ANA at 1 2 3 4 5 7 9 10 11 13,68.3
2'F-ANA at 1 4 7 8 9 11 12 15,196
2'F-ANA at 1 3 9 10 12 15,114
2'F-ANA at 3 4 6 9 10 12 13 14 15,161
2'F-ANA at 1 3 6 7 8 10 11 12 14,68.7
2'F-ANA at 4 5 7 8 9 10 13,84.1
2'F-ANA at 1 3 4 5 7 8 9 11 12 15,133
2'F-ANA at 1 3 4 5 6 7 9,64.1
2'F-ANA at 2 7 8 9 10 12 13 14 15,88.1
2'F-ANA at 1 3 4 5 6 8 10 14,69.3
2'F-ANA at 1 2 4 6 7 8 12 14,77.5
2'F-ANA at 2 3 6 9 11 12 14,375
2'F-ANA at 1 6 7 9 10 11 13,54.7
2'F-ANA at 1 3 6 8 10 11 12 13,94.9
2'F-ANA at 3 6 8 9 13 14,529
2'F-ANA at 3 4 5 8 10 11 12,55.9
2'F-ANA at 1 3 4 8 11 15,217
2'F-ANA at 1 2 5 6 7 9 10 11 12 13 14 15,47.4
2'F-ANA at 1 3 4 6 8 10 11 12 13 14 15,48.5

# A few entries again (block 3):
Strand,log fluorescence
ACCTTTGTTTTTTTCTATATGTGCTAG,1.98 z-score
TCATTTCCCACTTTCAGACTGTGCTAG,2.17 z-score
GTCGGTATCGGTTTCGGGACGTGCTAG,9.62 z-score
GACGATATCGTGTTTCGAGACGTGCTA,2.76 z-score
GACGGACTGCTTTTTCTGACGTGCTAG,-0.129 z-score
TTAGGTACCGGACTGGGTTAGTGCTAG,-0.222 z-score
TTAGGTTTCCTTGCCCTTTAGTGCTAG,0.476 z-score
GACGGACTTGGTATCGGGACGTGCTAG,1.07 z-score
GACGATATCAGTTTCGCGACGTGCTAG,3.15 z-score
TTAGAACTGGACTTTCGGTTAGTGCTA,9.73 z-score
GATGGTATCGGGTATCGGGACGTGCTA,4.46 z-score
TTAGATATCAGACTGGGTTAGTGCTAG,0.163 z-score
